Published values from different studies.
Each line is one published result; not all experiments were run side by side. Values joined by “and” are separate records of one study, mostly repeats; a detail may differ. ± gives the spread as reported.
USP14: Ubiquitin carboxyl-terminal hydrolase 14 (USP14, Homo sapiens, UniProt P54578)
PPO3: PPO3 (Agaricus bisporus, UniProt C7FF04)

For `COC1CN([C@H]2CC[C@H]([C@@]3(C)Oc4c(Cl)cc(C(=O)NCc5c(SC)cc(C)[nH]c5=O)c(C)c4O3)CC2)C1`, “log2 fold change” read 1.47 (RNA-seq, measured: LRRC1; human, whole blood; dose not given, 24 h; baseline: pretreatment baseline).
`CCOC(=O)C(C(=O)c1ccccc1)C1(O)C(=O)c2ccccc2C1=O` (centres unmarked) has an inhibition of 48% (USP14; enzyme activity, inhibitor; 17 µM).
For `C[n+]1cc(/C=N/NC(=O)N/N=C/c2cc3ccccc3[n+](C)c2)cc2ccccc21`, the ΔTm was 3.6 ± 1 °C (MYC parallel G4 DNA; FRET melting; 1 µM, DNA 0.2 µM).
`CC(C)Oc1cc(Cl)ccc1CNc1cc(-c2ccccc2)nc2ncnn12` gave a cAMP luminescence of 44000 a.u. and 37600 a.u. and 39800 a.u. and 28800 a.u. (G-protein coupled receptor 3 (GPR3, Homo sapiens, UniProt P46089, R152A); cAMP level, cAMP GloSensor; 1 nM; higher = more cAMP).
For `OC[C@H]1O[C@@H](Oc2cc3c(O)cc(O)cc3[o+]c2-c2cc(O)c(O)c(O)c2)[C@H](O)[C@@H](O)[C@H]1O`, “binding free energy ΔG” read -7.443 ± 0.00956 kcal/mol (PPO3; fluorescence quenching; 318 K).
With `N#CN1CC[C@H](C(=O)Nc2nc3c(s2)CN(C(=O)Cn2cc(COCCOCCOCCOCCNC(=O)CCCC[C@@H]4SC[C@@H]5NC(=O)N[C@@H]54)nn2)CC3)C1` the iBAQ abundance was 351000 and 549000 and 110000 ((E3-independent) E2 ubiquitin-conjugating enzyme (UBE2O, Homo sapiens, UniProt Q9C0C9); probe binding, affinity probe, neutravidin pull-down LC-MS/MS; HEK293T, cell lysate; 5 µM, 1 h, single replicate, unit not given; higher = more pulled down).
`O=C(O)Cc1cc2c(cc1C(=O)c1cccc(I)c1)OCO2` — result for “desensitization time constant”: 1.4 ± 0.2 ms (Gria2/Glutamate receptor 3 (Rattus norvegicus, UniProt P19491+P19492); whole-cell patch clamp; HEK-293T; concentration not given, added: glutamate).
For `CN(CCNCc1ccncc1[O-])CCNCc1ccncc1[O-].[Cl-].[Fe+3]`, “transchelation rate constant” read 0.015 min⁻¹ (TF (Homo sapiens, UniProt P02787); measured: Fe; pH 7.4, 37 °C, 4-fold transferrin decrease).
For `c1ccc(-c2nc3ccccc3[nH]2)cc1`, the inhibition was 30% (USP14; enzyme activity, inhibitor; 17 µM).
For `CCCCOc1ccc(C(=O)OCC[N+]2(C)CC=CCC2)cc1` (centres unmarked), the Emax was 1.56 ± 0.06 fold (Muscarinic acetylcholine receptor M1 (CHRM1, Homo sapiens, UniProt P11229); membranes; 10 µM, 15 h, added: carbachol; baseline: control).
The apparent Vmax of `C1=Cc2ccccc2N(Cc2cc(-c3ccc(OCc4ccccc4)cc3)no2)c2ccccc21` is reported as 33.1 µmol/min (PPO3; enzyme activity, inhibitor; concentration not given).
For `O=C1c2sc(-c3ccc(N4CCC(F)C4)nc3F)nc2CCN1c1cccnc1` (centres unmarked), the specific binding was 172 nM (TAR DNA-binding protein 43, aggregated (TARDBP, Homo sapiens, UniProt Q13148); saturation autoradiography; human, FTLD-TDP type A brain sections; 19.53 nM).
`Cc1nn(-c2cccc(N)c2)c(=O)c2cnc(Nc3ccc(N4CCNCC4)cc3)nc12` gave an IC50 of greater than 10 µM (Insulin receptor-related protein (INSRR, Homo sapiens, UniProt P14616); SelectScreen kinase).
For `C[n+]1ccc(/C=N/NC(=O)c2ccc3ccc4ccc(C(=O)N/N=C/c5cc[n+](C)cc5)nc4c3n2)cc1`, the ΔTm was 1.6 ± 1 °C (hp2 hairpin duplex DNA; FRET melting; 1 µM).

Repeated from above:
For `c1ccc(-c2nc3ccccc3[nH]2)cc1`, the inhibition was 30% (USP14; enzyme activity, inhibitor; 17 µM).
`CC(C)Oc1cc(Cl)ccc1CNc1cc(-c2ccccc2)nc2ncnn12` gave a cAMP luminescence of 44000 a.u. and 37600 a.u. and 39800 a.u. and 28800 a.u. (G-protein coupled receptor 3 (GPR3, Homo sapiens, UniProt P46089, R152A); cAMP level, cAMP GloSensor; 1 nM; higher = more cAMP).
